Results from different studies.
Each numbered part is a random draw from the data of one study; scales do not carry over between parts.

Block 1 — method: Spec-seq; molecule type: double-stranded DNA, one strand shown; matrix: in vitro; tested at: not given; setting: whole probe, mean of replicates; baseline: not given; direction: lower = stronger binding
Target: POU, POU domain (Salpingoeca helianthica)
Target sequence (chain): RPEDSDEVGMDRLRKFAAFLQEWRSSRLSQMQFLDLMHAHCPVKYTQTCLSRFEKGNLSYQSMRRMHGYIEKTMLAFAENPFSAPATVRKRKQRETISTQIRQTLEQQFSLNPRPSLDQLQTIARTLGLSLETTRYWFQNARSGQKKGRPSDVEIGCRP
Under “relative binding energy”, `GAGTCGTCTCGTCAGCACCGCGTAATCCGTAGAGCACTCAGGTC` is recorded as 0.641 ln ratio.
`GAGTCGTCTCGTCAGCACATCCGCATCCGTAGAGCACTCAGGTC` — result for “relative binding energy”: 1.23 ln ratio.
`GAGTCGTCTCGTCAGCACATGCGGCGCCGTAGAGCACTCAGGTC`: “relative binding energy” 1.46 ln ratio.
`GAGTCGTCTCGTCAGCACATGCAAGACCGTAGAGCACTCAGGTC` — result for “relative binding energy”: 1.42 ln ratio.

Block 2 — method: universal PBM; molecule type: double-stranded DNA, one strand shown; matrix: in vitro; tested at: not given; direction: higher = stronger binding
Target: Sal-like protein 4, full length isoform B (SALL4, Homo sapiens, UniProt Q9UJQ4-2, residues 1-616)
Setting: 8-mer, flanks averaged, mean of replicates
For `ATTCACAC`, the E-score was 0.0577.
For `AAAAGTCT`, the E-score was 0.0828.
`CGGGGCCA` gave an E-score of -0.354.
For `AGGATGGC`, the E-score was -0.119.
`CGATCATC` has an E-score of 0.0382.

Block 3 — method: protein binding microarray; molecule type: double-stranded DNA, one strand shown; matrix: in vitro; tested at: not given; baseline: not given; direction: higher = stronger binding
Target: Histone acetyltransferase KAT6A, winged helix 2, GST fusion (KAT6A, Homo sapiens, UniProt Q92794, residues 85-181)
Setting: 8-mer, flanks averaged, mean of 2 arrays, mostly near background
Target sequence (chain): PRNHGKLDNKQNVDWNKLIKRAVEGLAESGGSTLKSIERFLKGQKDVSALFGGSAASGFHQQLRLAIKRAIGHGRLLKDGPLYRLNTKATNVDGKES
`ACAAGTAC` gave an E-score of -0.184.
`CTGTCAAG` gave an E-score of 3.5e-05.
`GACCTGGC` gave an E-score of 0.0763.

Mixed results
`PhoQ, residues 284 288 289 292 302 303 NLMGRA` gave a fold induction of 19.9 (PhoP, residues 12 14 15 18 19 FWNTL (Escherichia coli, UniProt P23836); Sort-seq, refers to: YFP reporter; E. coli; PhoQ-PhoP variant library, with: 10 µM Mg2+; baseline: high Mg2+ state, higher = stronger signaling).

Excerpt of the above (block 2):
`CGGGGCCA` gave an E-score of -0.354.
